Measured values gathered from unrelated publications.
± gives the spread as reported. Converted amounts (≈) assume the structure as drawn.

O=C(/C=C/c1ccc(O)c(O)c1)O[C@H](Cc1ccc(O)c(O)c1)C(=O)O
CL/F (UPLC-MS/MS; Wistar rat, microcirculation dysfunction model, plasma; oral, 100 mg/kg Salvia miltiorrhiza stem-leaf extract FT): 2670 ± 1190 mL/min/kg

C(=NOCc1ccccc1)c1c(-c2ccccc2)[nH]c2ccccc12
inhibition (RAW264.7; NO release, inhibitor, Griess; 50 µM, 20 h, LPS-stimulated): 85.3%

CC(=O)N[C@H](CCNC(=O)c1cc(NC(=O)c2cc(NC(=O)c3cc(NC(=O)c4nccn4C)cn3C)cn2C)cn1C)C(=O)Nc1cn(C)c(C(=O)Nc2cc(C(=O)Nc3cc(C(=O)Nc4cc(C(=O)NCCCN(C)CCCN[14C](=O)c5cccc([14C](=O)O)c5)n(C)c4)n(C)c3)n(C)c2)n1
tumour concentration (NSG male mouse, LNCaP xenograft, tumour; intraperitoneal, 20 nmol per animal, 24 h after last dose, 3 doses on days 1, 4, 7): 2.5 µM

C[C@@H]1CCN(C(=O)CC#N)C[C@@H]1N(C)c1ncnc2[nH]ccc12
amount remaining in gastrointestinal tract (rat, DSS colitis model; intravenous infusion, 10 mg/kg, 24 h; reference: dose): 0.328 ± 0.438%

C[C@]12CC[C@@H]3c4ccc(O)cc4CC[C@H]3[C@@H]1C[C@@H](O)[C@@H]2O
mean serum concentration (GC-MS; breast cancer women on NSAI, serum; vaginal, 0.03 mg, 1 h, day 0): 0.011 ng/mL

COc1ccc(C(=O)CSc2nc(C)cc(C)c2C#N)cc1
microsomal CLint (metabolic stability; human, liver microsomes; 0.5 µM, pH 7.4): 438 µL/min/mg

C[C@@H]1C[C@@H](n2cnc(C(N)=O)c2N)[C@H](O)[C@H]1O
oral bioavailability (mouse, plasma; oral vs intravenous): ~30%

C[C@]12CC[C@@H]3c4ccc(O)cc4C[C@@H](CCCCCCCCC[S+]([O-])CCCC(F)(F)C(F)(F)F)[C@H]3[C@@H]1CC[C@@H]2O (stereo partly shown)
steady-state Cmin (patients, plasma; intramuscular, 500 mg, inavolisib palbociclib fulvestrant arm): 13.3 ng/mL

CON
blood concentration (human, whole blood on ice; 30 min before centrifugation): 10.6 ng/mL

CCCC[C@H](NC(C)=O)C(=O)N[C@H]1CCC(=O)NC[C@@H](C(=O)N[C@@H](Cc2c[nH]c3ccccc23)C(N)=O)NC(=O)[C@H](CCCNC(=N)N)NC(=O)[C@@H](Cc2ccccc2)NC(=O)[C@H](Cc2c[nH]cn2)NC1=O
CL/F (CD Sprague Dawley rat, male, plasma; subcutaneous, 1.0 mg/kg daily, day 1): 15.4 mL/min/kg

Fc1cc(Cl)c(Nc2ccc(F)cc2Cc2nnn[nH]2)c(Cl)c1
remaining compound (human liver microsomes; 30 min, added: NADPH): 103 ± 1.3%

CNCc1ccc(-c2cc(-c3nc(-c4ccc(S(=O)(=O)C(C)C)cc4)cnc3N)on2)cc1
CL (mouse BALB/c female, plasma; intravenous, 6.0 mg/kg, from AUC(0-360)): 47.6 mL/min/kg

CCc1cc2c(cc1N1CCC(N3CCOCC3)CC1)C(C)(C)c1[nH]c3cc(C#N)ccc3c1C2=O
Vz/F (moderate hepatic impairment patients, plasma, total; oral, 300 mg single dose, fed): 4350 L

C[C@](N)(Cc1ccc(O)c(O)c1)C(=O)O
solubility (supercritical carbon dioxide; 5 h, 333 K, 30 MPa, density 830.5 kg/m3): 397 µg/mL (≈ 1880 µM)

O=[N+]([O-])c1ccc2[nH]c(-c3ccccc3)cc2c1
viability (RAW264.7; sulforhodamine B; 50 µM, 20 h; reference: vehicle): 81.7 ± 3.4%

Cc1c2oc3c(C)ccc(C(=O)N[C@@H]4C(=O)N[C@H](C(C)C)C(=O)N5CCC[C@H]5C(=O)N(C)CC(=O)N(C)[C@@H](C(C)C)C(=O)O[C@@H]4C)c3nc-2c(C(=O)N[C@@H]2C(=O)N[C@H](C(C)C)C(=O)N3CCC[C@H]3C(=O)N(C)CC(=O)N(C)[C@@H](C(C)C)C(=O)O[C@@H]2C)c(N)c1=O
half-life (mouse, Abcc2−/− knockout, FVB background, liver; intravenous, 0.5 mg/kg): 2.44 h

COc1ccc(/C=C\c2cc(OC)c(OC)c(OC)c2)cc1OP(=O)(O)O
clearance (Sprague-Dawley rat male, plasma; intravenous, 28 mg/kg): 28.8 ± 2 mL/min/kg

COC(=O)c1ccc2c(c1)NC(=O)/C2=C(\Nc1ccc(N(C)C(=O)CN2CCN(C)CC2)cc1)c1ccccc1
renal clearance (0-72 h) (human, hepatic impairment Child-Pugh B, urine and plasma; oral, 100 mg single dose, geometric mean): 17.6 mL/min

C[C@@H](Cn1ccc(-c2ccc(C#N)c(Cl)c2)n1)NC(=O)c1cc([C@@H](C)O)[nH]n1
effective half-life (human; oral, 600 mg twice daily, with food): 5.08 h

CC(C)=CCC[C@](C)(O[C@@H]1O[C@H](CO)[C@@H](O)[C@H](O)[C@H]1O)[C@H]1CC[C@]2(C)[C@@H]1[C@H](O)C[C@@H]1[C@@]3(C)CC[C@H](O)C(C)(C)[C@@H]3[C@@H](O[C@@H]3O[C@H](CO)[C@@H](O)[C@H](O)[C@H]3O)C[C@]12C
CL/F (Sprague Dawley rat, male, plasma; oral, 25 mg/kg, in white ginseng extract): 537 ± 96.7 mL/min/kg

CC(=O)Nc1noc(C)n1
concentration (HPLC-MS; C57BL/6 mouse, male, lungs; oral, 60 mg/kg, 45 min): 421 to 1180 ng/g

CC(C)NC[C@@H](C(=O)N1CCN(c2ncnc3c2[C@H](C)C[C@H]3O)CC1)c1ccc(Cl)cc1
apparent clearance (human, Healthy hepatic function, plasma; oral, 100 mg single dose, NCI classification, geometric mean): 297 L/h

C=C(C)[C@@H]1CC[C@]2(NCCN3CCS(=O)(=O)CC3)CC[C@]3(C)[C@H](CC[C@@H]4[C@@]5(C)CC=C(C6=CC[C@@](CF)(C(=O)O)CC6)C(C)(C)[C@@H]5CC[C@]43C)[C@@H]12
t1/2 (healthy human; oral, 200 mg, single ascending dose, geometric mean): 22.6 h

COc1cc(CNC(=O)CCCC/C=C/C(C)C)ccc1O
rectal body temperature (male Sprague-Dawley rat, myocardial infarction; iv, 0.3 mg/kg, 2 h reperfusion): 37.5 ± 0.1 °C

Cc1nc2c([nH]1)c(=O)n(C)c(=O)n2Cc1ccco1
inhibition (enzyme activity, inhibitor; human liver microsomes; 10 µM, 10 min preincubation, added: rosiglitazone 10 µM): 18%

Cn1c(-c2ccc(C(N)=O)cc2F)nnc1C(C)(C)Oc1c(F)cc(Cl)cc1F
AUC(0-inf) mean (young non-Japanese subjects, plasma; oral, 20 mg single dose, day 1): 3010 ng·h/mL

CC(C)C[C@H](N)C(=O)N1CCC[C@H](NCC(=O)N2CCC[C@H]2C(N)=O)C1
pKa1 (capillary electrophoresis-MS; water): 5.21

CC(=O)N[C@@H](Cc1ccccc1)C(=O)N[C@H]1CCCNC(=O)[C@H](CCCNC(=N)N)NC(=O)[C@H](Cc2c[nH]c3ccccc23)NC(=O)[C@@H](CC2CCCCC2)NC(=O)[C@@H]2CCCN2C1=O
absorption half-life (C57BL/6J mice, brain; subcutaneous, 1 mg/kg): 7.16 min

Oc1ccc(/C=C/c2cc(O)cc(O)c2)cc1
effective permeability (in situ intestinal perfusion; Sprague-Dawley rat, colon; 25 µg/mL, 120 min, pH 7.4): 5.1867 ± 0.000105 ×10⁻⁶ cm/s

Cc1cc(Nc2ncc(Cl)c(Nc3ccccc3S(=O)(=O)C(C)C)n2)c(OC(C)C)cc1C1CCNCC1
Css,min (item: unbound drug; patients, plasma; oral, 750 or 450 mg/day, 23.7 h, geometric mean): 10 nM

O=C1N=C(N2CCOCC2)CN1c1ccc(Cl)cc1
Cmax (beagle dog, male, plasma; oral, 30 mg/kg, tablets, fasted): 16000 ng/mL

CNC(=O)c1cc(Oc2ccc(NC(=O)Nc3ccc(Cl)c(C(F)(F)F)c3)cc2)ccn1
t1/2 (LC-MS/MS; nude mice, HepG2 subcutaneous tumour, tumour; intratumoral, 20 µL per tumour, miR-140-3p): 39.9 ± 4.07 h

Cc1cc(-c2ncc(CC(=O)Nc3ccc(-c4cnccn4)cn3)cc2C)ccn1
steady-state AUC(0-24h) (patients, plasma; oral, dose not given, threshold for dysgeusia grade ≥2): < 762 ng·h/mL

CC(=O)N[C@H](CSSC[C@H](N)C(=O)O)C(=O)N[C@H](C)C(=O)N[C@H](CCCNC(=N)N)C(=O)N[C@H](CCCNC(=N)N)C(=O)N[C@H](CCCNC(=N)N)C(=O)N[C@H](C)C(=O)N[C@H](CCCNC(=N)N)C(N)=O
hemodialysis rate constant kAB (in vitro hemodialysis; buffered aqueous solution): 0.118 min⁻¹

Some of these lines once more:
COc1ccc(C(=O)CSc2nc(C)cc(C)c2C#N)cc1
microsomal CLint (metabolic stability; human, liver microsomes; 0.5 µM, pH 7.4): 438 µL/min/mg

C[C@@H]1C[C@@H](n2cnc(C(N)=O)c2N)[C@H](O)[C@H]1O
oral bioavailability (mouse, plasma; oral vs intravenous): ~30%

C[C@]12CC[C@@H]3c4ccc(O)cc4C[C@@H](CCCCCCCCC[S+]([O-])CCCC(F)(F)C(F)(F)F)[C@H]3[C@@H]1CC[C@@H]2O (stereo partly shown)
steady-state Cmin (patients, plasma; intramuscular, 500 mg, inavolisib palbociclib fulvestrant arm): 13.3 ng/mL

CON
blood concentration (human, whole blood on ice; 30 min before centrifugation): 10.6 ng/mL
